# Experimental data collected from several papers.
# Numbered parts are unrelated; each lists some results of a single study.
# Sequence of UniProt O00444 (whole entry, looked up): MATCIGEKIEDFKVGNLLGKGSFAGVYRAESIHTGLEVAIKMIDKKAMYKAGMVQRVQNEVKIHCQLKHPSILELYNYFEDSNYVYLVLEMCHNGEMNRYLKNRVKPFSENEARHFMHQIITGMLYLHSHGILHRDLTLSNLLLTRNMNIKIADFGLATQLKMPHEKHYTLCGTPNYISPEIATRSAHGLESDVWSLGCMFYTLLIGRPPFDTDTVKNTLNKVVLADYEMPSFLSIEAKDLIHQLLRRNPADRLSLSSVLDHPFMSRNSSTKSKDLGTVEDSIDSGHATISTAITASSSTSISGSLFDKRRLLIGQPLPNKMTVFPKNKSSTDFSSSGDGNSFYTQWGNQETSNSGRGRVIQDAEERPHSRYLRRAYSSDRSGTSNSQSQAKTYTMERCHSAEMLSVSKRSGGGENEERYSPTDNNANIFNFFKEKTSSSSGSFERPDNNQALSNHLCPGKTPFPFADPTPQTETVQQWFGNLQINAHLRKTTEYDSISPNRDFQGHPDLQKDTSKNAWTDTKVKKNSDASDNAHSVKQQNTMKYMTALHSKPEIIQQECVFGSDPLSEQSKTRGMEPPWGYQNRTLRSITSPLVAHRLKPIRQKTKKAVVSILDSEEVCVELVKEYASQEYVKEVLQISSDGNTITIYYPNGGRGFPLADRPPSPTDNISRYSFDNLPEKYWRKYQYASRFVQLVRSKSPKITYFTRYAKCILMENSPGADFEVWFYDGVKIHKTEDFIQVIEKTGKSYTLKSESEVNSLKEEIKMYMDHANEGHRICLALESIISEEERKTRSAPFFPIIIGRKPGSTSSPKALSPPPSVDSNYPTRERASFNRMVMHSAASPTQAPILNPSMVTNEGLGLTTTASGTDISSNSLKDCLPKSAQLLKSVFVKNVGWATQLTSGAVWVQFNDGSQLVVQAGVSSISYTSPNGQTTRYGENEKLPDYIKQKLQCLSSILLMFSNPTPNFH
# Sequence of UniProt P07332 (whole entry, looked up): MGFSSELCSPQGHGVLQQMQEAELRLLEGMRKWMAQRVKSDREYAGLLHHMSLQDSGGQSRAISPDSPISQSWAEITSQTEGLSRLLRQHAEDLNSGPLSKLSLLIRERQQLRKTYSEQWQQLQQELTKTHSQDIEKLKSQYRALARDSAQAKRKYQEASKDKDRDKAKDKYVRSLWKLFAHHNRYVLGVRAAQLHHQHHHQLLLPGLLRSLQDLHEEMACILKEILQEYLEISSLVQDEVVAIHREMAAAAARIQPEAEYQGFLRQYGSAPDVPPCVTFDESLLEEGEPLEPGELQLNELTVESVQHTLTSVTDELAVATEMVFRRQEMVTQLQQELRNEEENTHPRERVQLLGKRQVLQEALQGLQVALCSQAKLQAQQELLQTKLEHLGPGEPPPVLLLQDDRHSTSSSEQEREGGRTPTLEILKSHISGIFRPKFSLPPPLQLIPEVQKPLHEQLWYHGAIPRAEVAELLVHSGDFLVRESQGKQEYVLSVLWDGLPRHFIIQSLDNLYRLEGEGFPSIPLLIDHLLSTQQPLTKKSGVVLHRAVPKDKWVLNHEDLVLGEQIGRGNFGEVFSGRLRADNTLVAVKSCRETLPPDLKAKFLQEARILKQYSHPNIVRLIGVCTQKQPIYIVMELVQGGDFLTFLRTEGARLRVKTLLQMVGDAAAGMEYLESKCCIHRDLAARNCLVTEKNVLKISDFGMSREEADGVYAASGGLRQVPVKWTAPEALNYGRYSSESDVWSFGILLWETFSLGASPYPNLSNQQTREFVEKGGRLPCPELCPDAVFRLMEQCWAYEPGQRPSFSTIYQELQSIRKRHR
# Sequence of UniProt Q07912 (whole entry, looked up): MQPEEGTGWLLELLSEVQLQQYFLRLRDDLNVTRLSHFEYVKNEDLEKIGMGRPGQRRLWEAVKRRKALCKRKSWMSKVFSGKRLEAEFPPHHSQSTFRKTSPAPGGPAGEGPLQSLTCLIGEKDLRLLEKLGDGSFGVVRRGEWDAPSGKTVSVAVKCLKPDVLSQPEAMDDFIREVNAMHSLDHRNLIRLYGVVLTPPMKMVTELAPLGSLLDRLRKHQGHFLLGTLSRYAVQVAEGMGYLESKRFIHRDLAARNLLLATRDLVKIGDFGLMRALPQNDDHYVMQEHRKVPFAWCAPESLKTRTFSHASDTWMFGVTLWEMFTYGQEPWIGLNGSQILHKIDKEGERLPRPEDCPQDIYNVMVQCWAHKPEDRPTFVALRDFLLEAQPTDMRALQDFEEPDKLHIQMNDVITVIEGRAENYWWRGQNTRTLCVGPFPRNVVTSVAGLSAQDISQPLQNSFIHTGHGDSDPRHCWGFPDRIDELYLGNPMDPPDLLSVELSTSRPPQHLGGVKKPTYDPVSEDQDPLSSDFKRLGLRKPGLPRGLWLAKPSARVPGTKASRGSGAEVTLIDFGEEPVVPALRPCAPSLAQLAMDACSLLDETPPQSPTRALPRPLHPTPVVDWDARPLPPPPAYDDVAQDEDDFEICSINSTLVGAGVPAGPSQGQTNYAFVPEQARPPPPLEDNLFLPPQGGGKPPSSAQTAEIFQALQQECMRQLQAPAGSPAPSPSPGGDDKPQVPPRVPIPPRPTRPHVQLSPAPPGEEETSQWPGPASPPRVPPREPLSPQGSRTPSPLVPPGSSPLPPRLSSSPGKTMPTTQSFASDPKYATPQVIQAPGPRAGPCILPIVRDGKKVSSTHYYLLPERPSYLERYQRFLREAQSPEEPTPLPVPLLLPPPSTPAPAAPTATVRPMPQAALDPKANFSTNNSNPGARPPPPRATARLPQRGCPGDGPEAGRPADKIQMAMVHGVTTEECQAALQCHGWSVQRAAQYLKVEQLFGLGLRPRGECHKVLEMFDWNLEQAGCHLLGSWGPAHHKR
# Sequence of UniProt Q9UIK4 (whole entry, looked up): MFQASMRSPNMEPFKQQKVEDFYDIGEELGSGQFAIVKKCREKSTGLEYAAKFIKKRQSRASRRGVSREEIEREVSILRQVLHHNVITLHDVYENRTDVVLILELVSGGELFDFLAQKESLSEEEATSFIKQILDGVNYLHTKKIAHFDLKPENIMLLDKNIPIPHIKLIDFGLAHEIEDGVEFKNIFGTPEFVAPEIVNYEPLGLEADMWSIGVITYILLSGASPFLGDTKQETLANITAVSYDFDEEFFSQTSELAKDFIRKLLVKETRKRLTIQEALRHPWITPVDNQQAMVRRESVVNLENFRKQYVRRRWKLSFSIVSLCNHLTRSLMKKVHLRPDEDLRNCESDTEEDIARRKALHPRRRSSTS
# Sequence of UniProt Q9BQI3 (whole entry, looked up): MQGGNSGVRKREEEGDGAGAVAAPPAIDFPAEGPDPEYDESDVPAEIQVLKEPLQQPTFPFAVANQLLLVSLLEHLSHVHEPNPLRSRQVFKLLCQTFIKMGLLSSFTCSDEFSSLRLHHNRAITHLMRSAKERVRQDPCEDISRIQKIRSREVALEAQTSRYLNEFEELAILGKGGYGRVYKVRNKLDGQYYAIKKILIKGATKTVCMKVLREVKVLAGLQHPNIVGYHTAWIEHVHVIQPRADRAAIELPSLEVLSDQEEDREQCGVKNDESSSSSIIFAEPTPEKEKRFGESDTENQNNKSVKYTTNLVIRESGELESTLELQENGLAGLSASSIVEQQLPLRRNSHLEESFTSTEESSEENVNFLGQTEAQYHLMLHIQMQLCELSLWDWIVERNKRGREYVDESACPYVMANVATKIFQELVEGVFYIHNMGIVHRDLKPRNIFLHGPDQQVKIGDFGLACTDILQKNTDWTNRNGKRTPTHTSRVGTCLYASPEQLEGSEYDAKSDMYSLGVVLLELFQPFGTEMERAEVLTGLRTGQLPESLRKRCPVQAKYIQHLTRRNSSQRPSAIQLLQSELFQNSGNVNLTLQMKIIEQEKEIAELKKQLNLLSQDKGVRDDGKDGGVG
# Sequence of UniProt Q13554 (whole entry, looked up): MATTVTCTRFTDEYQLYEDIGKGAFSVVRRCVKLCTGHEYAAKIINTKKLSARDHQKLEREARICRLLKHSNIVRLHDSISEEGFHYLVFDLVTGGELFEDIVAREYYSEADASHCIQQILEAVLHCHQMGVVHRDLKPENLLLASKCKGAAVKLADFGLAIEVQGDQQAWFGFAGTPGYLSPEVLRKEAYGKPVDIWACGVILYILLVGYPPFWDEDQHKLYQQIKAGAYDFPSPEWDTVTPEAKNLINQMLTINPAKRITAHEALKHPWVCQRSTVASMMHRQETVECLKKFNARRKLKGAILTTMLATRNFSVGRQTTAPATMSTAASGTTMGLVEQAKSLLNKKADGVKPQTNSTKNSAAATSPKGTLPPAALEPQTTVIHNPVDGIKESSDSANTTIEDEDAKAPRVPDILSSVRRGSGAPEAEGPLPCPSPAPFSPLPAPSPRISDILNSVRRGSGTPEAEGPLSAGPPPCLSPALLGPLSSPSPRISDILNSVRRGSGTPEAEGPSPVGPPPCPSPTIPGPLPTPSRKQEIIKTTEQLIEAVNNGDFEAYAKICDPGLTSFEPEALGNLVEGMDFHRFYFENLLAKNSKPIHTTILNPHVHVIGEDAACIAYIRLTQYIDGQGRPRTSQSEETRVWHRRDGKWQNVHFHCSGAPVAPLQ

# Sample 1 — method: competitive binding panel; concentration: 1 µM; baseline: vehicle
# SMILES: Cc1ccc(NC(=O)c2ccnc(C(F)(F)F)c2)cc1-c1cc(OCCO)nc(N2CCOCC2)c1
target,remaining binding
"Tyrosine-protein kinase Fes/Fps (FES, Homo sapiens, UniProt P07332)",89%
"Activated CDC42 kinase 1 (TNK2, Homo sapiens, UniProt Q07912)",86%
"Serine/threonine-protein kinase PLK4 (PLK4, Homo sapiens, UniProt O00444)",75%
"Death-associated protein kinase 2 (DAPK2, Homo sapiens, UniProt Q9UIK4)",100%
"Discoidin domain-containing receptor 2 (DDR2, Homo sapiens, UniProt Q16832)",16%
"Serine/threonine-protein kinase TAO3 (TAOK3, Homo sapiens, UniProt Q9H2K8)",89%
"Leucine-rich repeat serine/threonine-protein kinase 2 (LRRK2, Homo sapiens, UniProt Q5S007)",100%
"Eukaryotic translation initiation factor 2-alpha kinase 1 (EIF2AK1, Homo sapiens, UniProt Q9BQI3)",94%
"Calcium/calmodulin-dependent protein kinase type II subunit beta (CAMK2B, Homo sapiens, UniProt Q13554)",95%
"Mast/stem cell growth factor receptor Kit (KIT, Homo sapiens, UniProt P10721, T670I/V559D)",100%

# Sample 2 — read-out: acetyl-histone H4 peptide binding; method: AlphaScreen displacement; concentration: 50 µM
# Target: Bromodomain-containing protein 4, BD1 (BRD4, Homo sapiens, UniProt O60885)
Compound,inhibition
COC(=O)Cn1cc(C=C2SC(=O)NC2=O)c2ccccc21,14.2%
Fc1cccc(-c2nnc3ccc(SCc4ccccn4)nn23)c1,24.4%
O=C(NC1CCCC1)c1n[nH]c2ccccc12,9.38%
O=C(NCc1ccco1)c1n[nH]c2ccccc12,10.8%
CC(=O)Nc1ccc(Nc2nc(-c3c(C)nc4ccccn34)cs2)cc1,37.4%

# Sample 3 — cell line: HaCaT; concentration: 100 µM; time: 18 h
SMILES,viability
CC(C)(C)c1nc(-c2cccc(NS(=O)(=O)c3c(F)cccc3F)c2F)c(-c2ccnc(N)n2)s1,75.3%
Nc1ncnc2c1ncn2[C@@H]1O[C@H](COP(=O)(O)O)[C@@H](O)[C@H]1O,108%
NS(=O)(=O)Cc1noc2ccccc12,96.4%
COc1ccc2c(c1)c(CC(=O)O)c(C)n2C(=O)c1ccc(Cl)cc1,97.1%
Cc1coc2c1C(=O)C(=O)c1c-2ccc2c(C)cccc12,33.4%
CC[C@@H]1C(=O)OC[C@@H]1Cc1cncn1C,111%
CCOC(=O)O[C@]1(C(=O)OCCl)CC[C@H]2[C@@H]3CCC4=CC(=O)C=C[C@]4(C)[C@H]3[C@@H](O)C[C@@]21C,89.9%
NC(N)=Nc1nc(CSCCC(N)=NS(N)(=O)=O)cs1,111%
C[C@@H]1O[C@@H](OC[C@H]2O[C@@H](Oc3c(-c4ccc(O)c(O)c4)oc4cc(O)cc(O)c4c3=O)[C@H](O)[C@@H](O)[C@@H]2O)[C@H](O)[C@H](O)[C@H]1O,107%

# Sample 4 — read-out: ligand displacement; method: radioligand; concentration: 10 µM
# Target: 5-hydroxytryptamine receptor 1D (HTR1D, Homo sapiens, UniProt P28221)
# Sequence of UniProt P28221 (whole entry, looked up): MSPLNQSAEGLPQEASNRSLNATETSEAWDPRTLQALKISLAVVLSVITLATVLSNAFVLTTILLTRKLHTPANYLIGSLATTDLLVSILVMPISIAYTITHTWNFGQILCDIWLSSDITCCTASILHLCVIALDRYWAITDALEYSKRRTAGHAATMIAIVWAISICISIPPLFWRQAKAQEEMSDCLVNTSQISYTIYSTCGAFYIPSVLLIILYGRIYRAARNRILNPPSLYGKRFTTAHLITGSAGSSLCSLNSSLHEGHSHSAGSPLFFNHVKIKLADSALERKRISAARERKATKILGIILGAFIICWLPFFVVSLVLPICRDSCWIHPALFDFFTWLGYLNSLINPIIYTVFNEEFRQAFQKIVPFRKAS
Compound,inhibition
Cc1c(NC(=O)c2cc(C(N)=O)nc3cc(F)ccc23)c(C(F)(F)F)nn1Cc1ccc(C(C)(C)C)cc1,-4.9%
CC(=O)N1CCC(c2ccc(C(=O)NC(=N)N)cc2C(F)(F)F)CC1,34%
CC(=O)Nc1c(C(C)=O)c(=O)n(C)c2nc(-c3ccc(Cl)cc3Cl)c(-c3ccc(Cl)cc3)cc12,32.9%
Cn1cc(Cl)c2c(Oc3c(F)cc(Nc4cc(Cl)nc(N)n4)cc3F)ccnc21,-5.84%
Cc1c(C(=O)O)cc(-c2ccc(C3CCNCC3)cc2)c2ccc(-c3ccc(C(F)(F)F)cc3)cc12,30.1%
Cn1nc(C(=O)NCc2ccc(C(=O)O)cc2)cc1-c1ccc2[nH]ccc2c1,10.1%
CCNC(=O)c1cc2c(N3CCOC[C@@H]3C)ccnc2[nH]1,-7.56%
Cc1nc(Cc2cccc(C(F)(F)F)c2)sc1-c1ccc(C(N)=O)nc1,8.49%
CN1CCN(C(=O)C(C)(C)c2ccc(C(=O)Nc3cn4cc(-c5ccncc5)ccc4n3)cc2)CC1,5.95%
O=C1NC(c2ccccn2)Sc2ccccc21 (stereo not drawn),-4.84%
O=C(O)c1cc(-c2ccc(C3CCNCC3)cc2)c2ccc(-c3ccc(C(F)(F)F)cc3)cc2c1,33.6%
CC(=O)C1=C(C)N(c2cccc(C(F)(F)F)c2)C(=O)N[C@@H]1c1ccc(C#N)nc1,10.9%
